Experimental data of several laboratories.
Each numbered part is a random draw from the data of one study; scales do not carry over between parts. Changes are numbered by the printed parent chain.

Study 1
Target: CCND1, cyclin fold, Cln2 fusion (human)
Technique: yeast growth competition, sequencing
Medium: yeast
Setting: weak parent motif
Relative to: not given
Direction: higher = stronger binding
Endpoint: normalised enrichment score
Parent: WEE2 docking peptide (human); KELRQKLNFSYCE; partner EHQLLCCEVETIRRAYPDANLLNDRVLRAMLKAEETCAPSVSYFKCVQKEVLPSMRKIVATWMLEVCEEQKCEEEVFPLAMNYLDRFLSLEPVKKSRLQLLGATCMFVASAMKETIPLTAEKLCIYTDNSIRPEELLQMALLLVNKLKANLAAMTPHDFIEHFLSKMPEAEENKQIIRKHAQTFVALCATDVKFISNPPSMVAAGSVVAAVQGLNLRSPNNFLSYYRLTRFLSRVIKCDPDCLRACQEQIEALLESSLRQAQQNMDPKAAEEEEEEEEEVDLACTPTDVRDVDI
KEARQKLNFSYCE [L3A]: 0.186
KALRQKLNFSYCE [E2A]: 0.207
KELRQKLAFSYCE [N8A]: -0.065
KELRQKLNASYCE [F9A]: 0.182
KELAQKLNFSYCE [R4A]: 0.179
KELRQKLNFAYCE [S10A]: 0.162

Study 2
Target: Centromere-binding protein 1, full length, N-terminal tag (CBF1, Saccharomyces cerevisiae, UniProt P17106, residues 1-351)
Sequence of UniProt P17106 (whole entry, looked up): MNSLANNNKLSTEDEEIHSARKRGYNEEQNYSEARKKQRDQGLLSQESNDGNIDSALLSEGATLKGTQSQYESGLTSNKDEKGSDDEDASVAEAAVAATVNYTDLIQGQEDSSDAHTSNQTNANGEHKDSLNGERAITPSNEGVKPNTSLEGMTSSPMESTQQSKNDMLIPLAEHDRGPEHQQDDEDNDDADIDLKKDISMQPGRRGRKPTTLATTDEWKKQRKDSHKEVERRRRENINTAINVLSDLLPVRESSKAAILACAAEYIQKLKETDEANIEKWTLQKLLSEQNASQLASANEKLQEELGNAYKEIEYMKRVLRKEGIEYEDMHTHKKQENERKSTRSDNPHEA
Technique: protein-binding microarray
Form: double-stranded DNA, one strand shown
Medium: in vitro
Concentration: 0.8 µM
Setting: whole 60-bp probe, no competitor
Direction: higher = stronger binding
Endpoint: fluorescence intensity
All sequences stand within: … GTCTTGATTCGCTTGACGCTGCTG
CTAGGTTGTTTTCCTATGATGACCAACCTTTGGTTC: 481 a.u.
TGTACGAAGCTATCAGGTGAGGATATAGTAGTTAGG: 712 a.u.
TGTACGAAGCTATCACGTGCAACTATAGTAGTTAGG: 10400 a.u.
GAATATCTTTTTAACATCAGAATTTCAACAAATTAG: 544 a.u.
TGTACGAAGCTATGTCATGTTGCTATAGTAGTTAGG: 563 a.u.
GAAGTACATACGCATGTGGCAATATGCCAAAGCTAG: 579 a.u.
GAACCCGCGTCAGCAGATGTCACAATTTGATTATAG: 647 a.u.
GAACGTGGTGGCGCTGGTGACGAAGAGGATCGATAG: 549 a.u.
CTACTAAACAATGGTGATGATATGTTAAACTATTTC: 540 a.u.
GAACTACCCTGACGTCATCAGCGAAATTCGTTGTAG: 492 a.u.
GAAAACGGGGATCAACATCAGCAAGAAAGCAAATAG: 689 a.u.
GAAATGTTCCGGAAGCACGGGAGAAATGGACTTTAG: 573 a.u.
CTATCTGGAAAAAATCACATGAAAAAATTTCAGTTC: 957 a.u.
GAAGTTCACTGGGGTAATCACATGTGATATCTATAG: 4810 a.u.
CTATTATCTCTTAGATATCACATGTGATTACCCTTC: 4710 a.u.
CTAAGTATAGTTATACATGTGGATGTGTATGGATTC: 576 a.u.
GAACTAGTTTATTATCACGTGCGGTGTAAGAAGTAG: 10700 a.u.
GAACTACACGAGTCGCACGAGGACCCTGAAAAATAG: 718 a.u.
CTACGTGCCACTGTGGCCGTGTCAGGTCACGTGTTC: 19200 a.u.
CTAGTATTGATCAATTACGTGAGTCAGCTTTTTTTC: 535 a.u.
CTAAATCTAAAAGCTGATGTAGTAGAAGATCCTTTC: 506 a.u.
CTATGTGTCATTTTGCACGTTACATCGGTTTGCTTC: 708 a.u.
GAAGATGAGGACGATGCTGATGGTGAAGACTCCTAG: 504 a.u.
GAAGAAGATGATGATCACGGCTTGGAGGATGACTAG: 580 a.u.
GAAGCTGATTAACGTGACGCTAAAAAAATACCATAG: 1790 a.u.

Study 3
Target: RNA binding protein fox-1 homolog 2, RRM domain, GST-SBP tag (RBFOX2, Homo sapiens, UniProt O43251-10, residues 100-194)
Technique: RNA Bind-n-Seq
Form: RNA
Medium: in vitro
Concentration: 365 nM
Setting: natural RNA segment, single round, ends assumed
Relative to: no-protein control
Direction: higher = stronger binding
Endpoint: RBNS enrichment (R)
All sequences stand within: GGGAGUUCUACAGUCCGACGAUC … UGGAAUUCUCGGGUGCCAA
Residues (chain): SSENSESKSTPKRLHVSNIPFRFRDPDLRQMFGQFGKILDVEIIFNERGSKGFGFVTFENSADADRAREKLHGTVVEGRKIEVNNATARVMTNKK
AUAAAGAAGCUAACCUGCCAUAGUCAGACUUCAGACUUUCAAGAUUAUUCUAAAUCACCAGAAAAUUAAUUUCAGUUUCUAUUGGGAGUUUAUACCAAGAGAUUCUUCUA: 0.486
UUCUGGCUCAGAUGUGUGCAUCCUUUUAGAGCUGUUGUGGGUGUAAGUGACAUGAUGUGGCCAAAAAUCCAAACUGUGCAGUUGCGUUGUGACAAACAUGCAAUGUGCUG: 1.01
UCCAAUUACAACUCUGCACUGGAUGUGAAGAAGCAAAAACUAUUCCGUCUACUCACAGAACAGUACUUUCUGGAAUAUUAUGGGGGAUUGUACCAAAACAAGAACCACUU: 0.303
GAAGCUUUCAGUGCUGCUGUUUGGCCCAGCUCAUUACUUUCUCCCUUUCUCUACCACAGCAAACACAUUCUCCACCAUGUCAGUCUAAAGAGUCUAAAGGGGCCGGGAGA: 0.478
GCAUAACUUGUUAUUGUCCUAGAUGUGUUUGAUAUUUUUCCUUUACAACUGAAUGCUAUAAAAGUGUUUUGCUGUGUACACAUAAGAUACUGUUCGUUAAAAUAAGCAUU: 1.01
UUAAGGGCACACAGCUAAUAAGUAAUAGGCCUAAACUGGAUUUCCUUAUUCCAAAUCCUGUCUUUUCCCCACUAUUCCAUUAGACCCCACAAAUGUUAGUUGUGUGUGUG: 0.365
UGCUCCAUGGGGCCCUGCUGGCUCCAUGGGGCCCAGGUGCAAAGGGUUUCUGAAAAACAGCAGGAUUAAGUACUGAAAGAGCCCAACACAAUUACCCUGUAAACUCUCUG: 0.396
GUUUGUUUGGUUUUGGUUUCUUUUCUUGAAUGUGCUUUAGUAGCCAGAUCCUCCAAGGAAGGCAAAAGCCAGCCAGCCAGAGAGAGAGUAGCGAAGCGGGCAGGCUGCAG: 4.6
UGGGGCUCUGGAUCCUUGGGUGUCCUCACUGUGGCCACUCUGCCUGCUGAGGACAGCCAGAAGCCCACACUGCCCUCUCACUUGGGUCCAGUUCUUGAUAGUUGGGGGCA: 0.404
AAAUUUUAAAAAUCUAAGCAGCUUAUUGUUUCUCUGAAAGUGUGUGUAGUUUUACUUUCCUAAGGAAUUACCAAGAAUAUCCUUUAAAAUUUAAAAGGAUGGCAAGUUGC: 1.38
UUCUAGUCGGGAGCCCAUGCCCUGGAAAUCCAUCUUUCUUCAUCUUUCCCAUUGACCACUUUGGGUUUGACCUGCACAUCUGCAGUGAGGGCAGAAUUCAACAAGCACAA: 0.442
GACAUCAGGACCUGAGAUGACCGCUGUGUGGCGCUCUCUCCCUGGGCAGGGUGGAUGCCACAGGCCCCUCUGGCUCCCAGGUGCUGCUUCUCCACAGGUGCGGCCUGGCC: 0.304

Study 4
Target: Interferon regulatory factor 7, full length, phosphomimetic (IRF7, Homo sapiens, UniProt Q92985, residues 1-503, S101K/S471D/S472D/S475D/S476D/S477D/S483D/S484D/S487D)
Technique: protein-binding microarray
Form: double-stranded DNA, one strand shown
Medium: in vitro
Concentration: 250 nM
Setting: 60-bp whole probe
Added: salmon DNA 0.4 mg/ml
Relative to: random background probes
Direction: higher = stronger binding
Endpoint: log fluorescence
All sequences stand within: GCCTAGCAC … GTCTTGATTCGCTTGACGCTGCTG
Construct (chain): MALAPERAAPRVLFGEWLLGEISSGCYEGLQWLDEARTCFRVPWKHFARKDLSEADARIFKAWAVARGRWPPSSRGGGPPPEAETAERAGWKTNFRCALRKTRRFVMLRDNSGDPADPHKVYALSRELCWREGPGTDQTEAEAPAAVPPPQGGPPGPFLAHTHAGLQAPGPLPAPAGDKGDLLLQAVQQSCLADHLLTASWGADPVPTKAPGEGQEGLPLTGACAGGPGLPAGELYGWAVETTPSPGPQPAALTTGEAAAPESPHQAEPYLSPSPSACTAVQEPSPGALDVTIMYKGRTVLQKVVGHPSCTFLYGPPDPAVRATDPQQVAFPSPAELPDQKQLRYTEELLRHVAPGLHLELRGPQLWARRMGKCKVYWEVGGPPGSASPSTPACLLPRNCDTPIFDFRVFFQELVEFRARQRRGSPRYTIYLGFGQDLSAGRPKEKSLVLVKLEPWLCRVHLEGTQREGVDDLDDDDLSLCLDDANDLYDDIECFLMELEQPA
TCATATATGACAATGATACTGTGCTAG: 0.573 z-score
GACGTTTTCGGACTGGGGACGTGCTAG: 1.05 z-score
TTAGGACGGGGGTATCGGTTAGTGCTA: 2.53 z-score
GACGGTCTGGACTTTCGGGACGTGCTA: -0.544 z-score
GACGGTCTCCTTCTCCCGACGTGCTAG: 0.242 z-score
GACGGACTGCGTCTCGGGACGTGCTAG: -0.528 z-score
TCATCTCCCCCATCTTGTACTGTGCTA: 0.0343 z-score
TTAGAACTGAGTATCGACTAGTGCTAG: -0.0107 z-score
GACGGTTTCGGACTGGGGAGGTGCTAG: 3.74 z-score
TCACGGATGATCTCTCTGACTGTGCTA: -0.916 z-score
TTAGGTTTGGGGACTGGGTTAGTGCTA: 0.00321 z-score
GACGGACTGGGGTAGCGGGACGTGCTA: -0.795 z-score
TCATGACACCGATTTCATACTGTGCTA: 0.258 z-score
ATAGGTTTCGACACTGGGTTAGTGCTA: 3.31 z-score
TTAGGTTTCCTTTCACTTTAGTGCTAG: 6.36 z-score
GACGGACTGCTTCTCCTGAGGTGCTAG: -0.269 z-score
TTGTGTTTGTCCCTATTTAAGTGCTAG: 1.34 z-score
GACGATTTCAGTTTCGAGACGTGCTAG: 4.87 z-score
TCACATTTTTTTTTTCAACTGTGCTAG: 1.08 z-score
TTAGACATCGGGTATCGATTAGTGCTA: 0.387 z-score

Study 5
Target: ABI1, truncated, D143A, DHFR fusion (Arabidopsis thaliana)
Technique: DHFR PCA, deep sequencing
Medium: yeast
Setting: methotrexate growth selection, single substitutions
Added: (+)-ABA 0.39 µM
Relative to: wild-type fitted maximum
Direction: higher = stronger binding
Endpoint: relative binding score
Parent: PYL1, truncated, DHFR fusion (Arabidopsis thaliana); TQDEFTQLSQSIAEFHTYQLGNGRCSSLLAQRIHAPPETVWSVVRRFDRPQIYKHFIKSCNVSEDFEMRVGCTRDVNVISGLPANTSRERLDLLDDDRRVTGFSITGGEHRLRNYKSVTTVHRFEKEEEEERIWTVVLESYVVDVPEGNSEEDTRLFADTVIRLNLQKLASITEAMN; partner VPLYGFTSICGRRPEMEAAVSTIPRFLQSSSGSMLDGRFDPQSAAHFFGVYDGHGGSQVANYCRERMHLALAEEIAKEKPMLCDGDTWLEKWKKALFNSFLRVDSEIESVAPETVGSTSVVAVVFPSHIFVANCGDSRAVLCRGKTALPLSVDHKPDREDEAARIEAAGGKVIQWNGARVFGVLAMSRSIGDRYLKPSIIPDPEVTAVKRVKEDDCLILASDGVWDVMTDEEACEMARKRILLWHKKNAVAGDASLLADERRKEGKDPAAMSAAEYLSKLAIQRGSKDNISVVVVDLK
S150G: 6.49%
V40P: -6.57%
K116I: -3.6%
R155Q: 13.6%
T73I: 56.4%
I52F: 17%
E131M: 47.1%
V70S: -5.25%
S9R: 60.6%
G148F: -19.1%
S140D: -11.4%
Y115V: 5.9%
V136P: 1.15%
T106G: 10.6%
H122M: 2.97%
T6H: 60.3%

Excerpt of the above (study 3):
UUCUAGUCGGGAGCCCAUGCCCUGGAAAUCCAUCUUUCUUCAUCUUUCCCAUUGACCACUUUGGGUUUGACCUGCACAUCUGCAGUGAGGGCAGAAUUCAACAAGCACAA: 0.442
AUAAAGAAGCUAACCUGCCAUAGUCAGACUUCAGACUUUCAAGAUUAUUCUAAAUCACCAGAAAAUUAAUUUCAGUUUCUAUUGGGAGUUUAUACCAAGAGAUUCUUCUA: 0.486
UGCUCCAUGGGGCCCUGCUGGCUCCAUGGGGCCCAGGUGCAAAGGGUUUCUGAAAAACAGCAGGAUUAAGUACUGAAAGAGCCCAACACAAUUACCCUGUAAACUCUCUG: 0.396
UUCUGGCUCAGAUGUGUGCAUCCUUUUAGAGCUGUUGUGGGUGUAAGUGACAUGAUGUGGCCAAAAAUCCAAACUGUGCAGUUGCGUUGUGACAAACAUGCAAUGUGCUG: 1.01
GACAUCAGGACCUGAGAUGACCGCUGUGUGGCGCUCUCUCCCUGGGCAGGGUGGAUGCCACAGGCCCCUCUGGCUCCCAGGUGCUGCUUCUCCACAGGUGCGGCCUGGCC: 0.304
